Experimental data gathered from unrelated publications.
Each line is one published result; not all experiments were run side by side.
Target: Serine/threonine-protein kinase ULK3 (ULK3, Homo sapiens, UniProt Q6PHR2)
One construct used (Q6PHR2 1-472): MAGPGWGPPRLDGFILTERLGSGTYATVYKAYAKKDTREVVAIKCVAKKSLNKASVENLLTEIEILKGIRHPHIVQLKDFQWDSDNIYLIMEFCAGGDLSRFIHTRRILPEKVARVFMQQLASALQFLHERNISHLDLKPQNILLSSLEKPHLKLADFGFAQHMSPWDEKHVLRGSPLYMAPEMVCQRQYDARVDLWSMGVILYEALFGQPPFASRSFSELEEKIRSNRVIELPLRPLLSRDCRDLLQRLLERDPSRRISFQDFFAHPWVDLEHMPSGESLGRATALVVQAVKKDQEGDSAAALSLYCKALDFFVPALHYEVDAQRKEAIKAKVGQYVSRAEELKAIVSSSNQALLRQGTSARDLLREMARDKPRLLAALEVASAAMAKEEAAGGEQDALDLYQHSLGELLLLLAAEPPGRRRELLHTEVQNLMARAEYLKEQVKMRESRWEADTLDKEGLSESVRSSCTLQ

For `C=CC(=O)N1CCC(C(=O)NCC(=O)N2CCN(c3nc(-c4cnc(N)nc4C(F)F)nc(N4CCOCC4)n3)CC2)CC1`, the remaining binding was 81% (KINOMEscan; 1 µM).
For `CCN(CC)c1ccc(C2=NNC(=O)CC2C)cc1[N+](=O)[O-]` (centres unmarked), the remaining activity was 101% (enzyme activity, inhibitor; 10 µM; baseline: vehicle).
With `Cc1cc(Nc2cc(N3CCN(C)CC3)nc(Sc3ccc(NC(=O)C4CC4)cc3)n2)[nH]n1` the remaining activity was 108% (kinase activity, KinaseProfiler; 0.03 µM, species human; baseline: control).
For `CN1CC(Oc2cnc(C#N)cc2-c2ccn3nc(NC(=O)C4CC4)cc3c2)C1`, the inhibition was 10% (inhibitor, KinaseProfiler panel; 1 µM).
`C1=C/COCc2cc(ccc2OCCN2CCCC2)Nc2nccc(n2)-c2cccc(c2)COC/1` gave a remaining binding of 57% (concentration not given; baseline: DMSO control).
With `C[C@@H](c1ccc(-n2cnc3c(N)ncnc32)cc1)N1CCc2nn(C)c(Cc3ccccc3)c2C1=O` the remaining binding was 91% (KINOMEscan; 0.1 µM; baseline: DMSO control).
`COc1ccc(F)cc1C(=O)NCc1ccc(-c2nn([C@@H](C)C(F)(F)F)c(N)c2C(N)=O)cc1` has an inhibition of 18.3% (probe binding, competitive chemoproteomics; human PBMCs; 0.01 µM).
`C=CC(=O)N1CCC(COCC(=O)N2CCN(c3nc(-c4cnc(N)nc4C(F)F)nc(N4CCOC[C@@H]4C)n3)CC2)CC1` gave a remaining binding of 96% (KINOMEscan; 1 µM; baseline: DMSO control).
For `CCCOc1ccc(OC)c(F)c1C(=O)c1ccc(C(=O)N[C@@H]2CNC[C@H]2NC(=O)c2ccc3[nH]ncc3c2)cc1`, the remaining activity was 88% (enzyme activity; 10 µM).
`O=C(NC1CCC1)c1ccc2nc(-c3cccc(NS(=O)(=O)NCCN4CCCCC4)c3)cn2c1` gave a remaining activity of 76% (enzyme activity; 10 µM).
With `COc1cc(F)ccc1-c1ncnc(Nc2cccc(C[S@](C)(=N)=O)c2)n1` the remaining activity was 91% (kinase activity; 10 µM, together with: 10 µM ATP).

A few entries again:
For `CCN(CC)c1ccc(C2=NNC(=O)CC2C)cc1[N+](=O)[O-]` (centres unmarked), the remaining activity was 101% (enzyme activity, inhibitor; 10 µM; baseline: vehicle).
